Experimental data gathered from unrelated publications.
Every numbered part comes from another study and shows a few of its results, in no order.

Sample 1 — observed: enzyme activity; mode: inhibitor; concentration: 20 µM
Target: Replicase polyprotein 1ab, main protease (rep, Severe acute respiratory syndrome coronavirus 2, UniProt P0DTD1)
Structure (SMILES)	inhibition [%]
O=C(O)c1ccc(N2C(=O)/C(=C/c3ccc(-c4ccc([N+](=O)[O-])cc4)o3)C=C2c2ccccc2)cc1	21.6
Sc1nnc(Nc2ccccc2)s1	97.3
C=CC(=O)c1ccc2ccccc2c1	-11.8

Sample 2 — observed: enzyme activity; mode: inhibitor; concentration: 20 µM
Target: Replicase polyprotein 1ab, polymerase (rep, Severe acute respiratory syndrome coronavirus 2, UniProt P0DTD1)
SMILES	inhibition
CCOC(=O)CCC(=O)O[C@H]1[C@H](O[C@@H]2[C@@H](C)[C@H](O[C@H]3C[C@@](C)(OC)[C@@H](O)[C@H](C)O3)[C@@H](C)C(=O)O[C@H](CC)[C@@](C)(O)[C@H](O)[C@@H](C)C(=O)[C@H](C)C[C@@]2(C)O)O[C@H](C)C[C@@H]1N(C)C	7.78%
O=C(Cn1ccnc1[N+](=O)[O-])NCCO	1.89%
CC(NC(=O)c1ccccc1/N=C/c1c(O)ccc2ccccc12)c1ccccc1 (stereo not shown)	0.8%
C[C@H](NC(=O)Cc1cc(F)cc(F)c1)C(=O)N[C@@H]1C(=O)N(C)c2ccccc2-c2ccccc21	-0.56%
C[C@H]1N=C(N(C)C)N=C(N)N1	-5.59%
COc1cccc(-c2ccc([C@@H](Oc3cc(-c4ccc(C[C@H](N)C(=O)O)cc4)nc(N)n3)C(F)(F)F)cc2)c1	50.1%
Cn1c(NC[C@@H](N)Cc2ccccc2)nc(-c2ccncc2)c(-c2ccc3ccccc3c2)c1=O	5.9%
COC1=CC(=O)C[C@@H](C)[C@]12Oc1c(Cl)c(OC)cc(OC)c1C2=O	3.41%

Other studies, line by line
Substance	tested on	assay	test system	conditions	scale	measurement	value
CCCNCC(O)COc1ccccc1C(=O)CCc1ccccc1 (stereo not shown)	HEK-293T		VSV pseudotyped with SARS-CoV-2 spike	10 µM, 16 h		pseudovirus infection	46.2%
CCCCN(CCCC)CCCNC(=O)c1ccc2nc(N3CCCCC3)sc2c1	SARS-CoV-2	cytopathic effect	USA_WA1/2020	retest, 8-point, duplicates		efficacy	83.7%
LEMELTPVV		AIM	peptide, CD8+ T cells from PBMC, human donors	HLA-B*40:01 restricted, unit not given	relative to: positive over tested donors	frequency of responding donors	50
CCCCN(CCCC)CCCNC(=O)c1cc(-c2ccc(Cl)s2)nc2ccccc12	SARS-CoV-2	cytopathic effect	USA_WA1/2020	round 2, 5-point		efficacy	81.3%
CC[C@H](C)[C@H](NC(=O)[C@H](CC(C)C)NC(=O)[C@H](Cc1c[nH]c2ccccc12)NC(=O)[C@H](CCC(N)=O)NC(=O)[C@@H](NC(=O)[C@H](Cc1ccccc1)NC(=O)[C@H](C)NC(=O)[C@H](CCCCNC(=O)COCCOCCNC(=O)COCCOCCNC(=O)CC[C@H](NC(=O)CCCCCCCCCCCCCCCCCCC(=O)O)C(=O)O)NC(=O)[C@H](CCC(N)=O)NC(=O)[C@H](C)NC(=O)[C@@H](NC(=O)[C@H](CCCCN)NC(=O)[C@H](CC(=O)O)NC(=O)[C@H](CC(C)C)NC(=O)C(C)(C)NC(=O)[C@@H](NC(=O)[C@H](CO)NC(=O)[C@H](Cc1ccc(O)cc1)NC(=O)[C@H](CC(=O)O)NC(=O)[C@H](CO)NC(=O)[C@@H](NC(=O)[C@H](Cc1ccccc1)NC(=O)[C@@H](NC(=O)CNC(=O)[C@H](CCC(=O)O)NC(=O)C(C)(C)NC(=O)[C@@H](N)Cc1ccc(O)cc1)[C@@H](C)O)[C@@H](C)O)[C@@H](C)CC)[C@@H](C)CC)C(C)C)C(=O)N[C@@H](C)C(=O)NCC(=O)NCC(=O)N1CCC[C@H]1C(=O)N[C@@H](CO)C(=O)N[C@@H](CO)C(=O)NCC(=O)N[C@@H](C)C(=O)N1CCC[C@H]1C(=O)N1CCC[C@H]1C(=O)N1CCC[C@H]1C(=O)N[C@@H](CO)C(N)=O			patients with type 2 diabetes, plasma	subcutaneous, 5 mg, day 22, proof of concept, geometric mean		Cmax	614 ng/mL
